Measured values of several laboratories.
Protocols differ between the studies behind these lines.
Organism: Enterococcus faecalis

| Compound | test | test system | setting | MIC |
| --- | --- | --- | --- | --- |
| CN(C)CCCNc1nc(Cl)c2c(c1O)C(=O)C1=C(O)[C@]3(O)C(=O)C(C(N)=O)=C(O)[C@@H](N(C)C)[C@@H]3C[C@@H]1C2.Cl |  | tet(M)-carrying |  | 32 µg/mL |
| CN1C(=O)Cc2ccc(F)c(CCNCC[C@H]3CN(c4ccc5c(n4)NC(=O)CO5)C(=O)O3)c21 |  | ATCC 29212 |  | 0.25 µg/mL |
| CN(C)[C@@H]1C(O)=C(C(N)=O)C(=O)[C@@]2(O)C(O)=C3C(=O)c4c(O)c(NC(=O)CNC(C)(C)C)nc(F)c4C[C@H]3C[C@@H]12.Cl.Cl |  | tet(M)-carrying |  | 32 µg/mL |
| CN[C@H](CC(C)C)C(=O)N[C@H]1C(=O)N[C@@H](CC(N)=O)C(=O)N[C@H]2C(=O)N[C@H]3C(=O)N[C@H](C(=O)N[C@H](C(=O)O)c4cc(O)cc(O)c4-c4cc3ccc4O)[C@H](O)c3ccc(c(Cl)c3)Oc3cc2cc(c3O[C@@H]2O[C@H](CO)[C@@H](O)[C@H](O)[C@H]2O[C@H]2C[C@](C)(N)[C@H](O)[C@H](C)O2)Oc2ccc(cc2Cl)[C@H]1O | broth microdilution | vancomycin-resistant |  | 22 µM |
| CC[C@@H](C)[C@@H](NC(=O)[C@@H](CC(C)C)NC(=O)[C@@H](CCCNC(=N)N)NC(=O)[C@@H](CCCNC(=N)N)NC(=O)[C@@H](CCCNC(=N)N)NC(=O)[C@@H](CCCNC(=N)N)NC(=O)[C@@H](CC(C)C)NC(=O)[C@H](NC(=O)[C@H](NC(=O)[C@H](NC(=O)[C@@H](CC(C)C)NC(=O)[C@@H](CCCNC(=N)N)NC(=O)[C@@H](CO)NC(=O)[C@H](N)CO)C(C)C)[C@H](C)CC)[C@H](C)CC)C(=O)N[C@H](CO)C(=O)N[C@H](CCCNC(=N)N)C(=O)N[C@H](CCCNC(=N)N)C(=O)N[C@H](CCCNC(=N)N)C(=O)N[C@H](CCCNC(=N)N)C(N)=O | broth microdilution | ATCC 29212 | highest value reported | 1 µM |
| COCCNc1nc(Cl)c2c(c1O)C(=O)C1=C(O)[C@]3(O)C(=O)C(C(N)=O)=C(O)[C@@H](N(C)C)[C@@H]3C[C@@H]1C2.Cl.Cl.Cl |  | tet(M)-carrying |  | 8 µg/mL |
| CC[C@H](C)[C@H](NC(=O)[C@H](CCCCN)NC(=O)[C@@H](NC(=O)[C@H](Cc1ccc(O)cc1)NC(=O)[C@H](CCCCN)NC(=O)[C@H](CCCCN)NC(=O)CNC(=O)[C@H](CCCCN)NC(=O)[C@@H](NC(=O)[C@H](C)NC(=O)[C@H](CC(C)C)NC(=O)[C@H](Cc1c[nH]c2ccccc12)NC(=O)CNC(=O)[C@@H](NC(=O)[C@H](Cc1ccccc1)NC(=O)[C@H](CCCCN)NC(=O)[C@H](CC(C)C)NC(=O)[C@H](Cc1ccccc1)NC(=O)[C@H](C)NC(=O)CNC(=O)[C@@H](N)CCSC)C(C)C)[C@@H](C)O)C(C)C)C(=O)N[C@@H](C)C(=O)N[C@@H](Cc1c[nH]c2ccccc12)C(=O)N[C@@H](CC(=O)O)C(=O)N[C@@H](Cc1c[nH]cn1)C(=O)N[C@@H](CCCCN)C(=O)NCC(=O)N[C@H](C(=O)N[C@H](C(=O)N[C@@H](CCSC)C(=O)N[C@@H](CCCCN)C(=O)N[C@@H](Cc1c[nH]c2ccccc12)C(=O)N[C@@H](CC(C)C)C(=O)N[C@@H](CC(N)=O)C(=O)N[C@@H](C)C(=O)NCC(=O)N[C@@H](CCC(N)=O)C(=O)N[C@H](C(=O)N[C@@H](Cc1ccccc1)C(=O)N[C@H](C(=O)N[C@@H](Cc1c[nH]c2ccccc12)C(=O)N[C@H](C(=O)N[C@@H](Cc1ccc(O)cc1)C(=O)N[C@@H](CCC(=O)O)C(=O)N[C@@H](CCC(N)=O)C(=O)N[C@H](C(=O)N[C@@H](CCCCN)C(=O)N[C@@H](CCCCN)C(=O)N[C@@H](CC(C)C)C(=O)N[C@@H](Cc1c[nH]c2ccccc12)C(=O)N[C@H](C(=O)O)[C@@H](C)O)[C@@H](C)CC)C(C)C)[C@@H](C)O)[C@@H](C)O)[C@@H](C)CC)[C@@H](C)O | broth microdilution |  | 37 °C, MRS medium | 3.9 µg/mL |
| CN(C)[C@@H]1C(O)=C(C(N)=O)C(=O)[C@@]2(O)C(O)=C3C(=O)c4c(O)c(N)nc(Cl)c4C[C@H]3C[C@@H]12 |  | tet(M)-carrying |  | 32 µg/mL |
| CC[C@H](C)[C@H](NC(=O)[C@H](CC(C)C)NC(=O)[C@@H](NC(=O)[C@H](Cc1ccc(O)cc1)NC(=O)[C@H](CO)NC(=O)CNC(=O)[C@H](CCCNC(=N)N)NC(=O)[C@H](CCCNC(=N)N)NC(=O)[C@H](CCCNC(=N)N)NC(=O)[C@@H]1CCCN1C(=O)[C@H](CCCCN)NC(=O)[C@H](Cc1c[nH]c2ccccc12)NC(=O)[C@@H](NC(=O)[C@H](Cc1c[nH]c2ccccc12)NC(=O)[C@H](CCCCN)NC(=O)[C@H](CCCNC(=N)N)NC(=O)[C@H](CCCNC(=N)N)NC(=O)[C@@H]1CCCN1C(=O)[C@H](CO)NC(=O)[C@H](CCCNC(=N)N)NC(=O)[C@H](CO)NC(=O)[C@H](CCCNC(=N)N)NC(=O)[C@@H](N)CCCNC(=N)N)[C@@H](C)O)[C@@H](C)O)C(=O)N[C@@H](CO)C(=O)N[C@@H](CCC(N)=O)C(=O)NCC(=O)NCC(=O)N[C@@H](CC(N)=O)C(=O)O |  | ATCC 29212 | highest concentration 50 µM | 21.8 µM |
| CC[C@H](C)[C@H](N)C(=O)N[C@@H](CCCNC(=N)N)C(=O)N[C@H](C(=O)N[C@@H](Cc1c[nH]c2ccccc12)C(=O)N[C@@H](Cc1c[nH]c2ccccc12)C(=O)N[C@@H](CCCCN)C(=O)N[C@H](C(=O)N[C@H](C(=O)N[C@@H](CCCNC(=N)N)C(=O)N[C@@H](CCCCN)C(=O)N[C@@H](Cc1c[nH]c2ccccc12)C(=O)N[C@@H](CCCCN)C(=O)N[C@@H](C)C(=O)N[C@H](C(=O)N[C@@H](Cc1c[nH]c2ccccc12)C(=O)N[C@@H](Cc1c[nH]cn1)C(N)=O)[C@@H](C)CC)C(C)C)[C@@H](C)CC)C(C)C | broth dilution | KCTC 3511 |  | 12.5 µM |
| CCCCCCCCCCCCCCNC(=O)CP(=O)(O)O |  | ATCC 33186 |  | > 200 µg/mL |
| CC(C)C[C@@H](NC(=O)[C@H](C)NC(=O)CNC(=O)[C@@H](NC=O)C(C)C)C(=O)N[C@@H](C)C(=O)N[C@@H](C(=O)N[C@H](C(=O)N[C@@H](C(=O)N[C@@H](Cc1c[nH]c2ccccc12)C(=O)N[C@H](CC(C)C)C(=O)N[C@@H](Cc1cccc2[nH]ccc12)C(=O)N[C@H](CC(C)C)C(=O)N[C@@H](Cc1c[nH]c2ccccc12)C(=O)N[C@H](CC(C)C)C(=O)N[C@@H](Cc1c[nH]c2ccccc12)C(=O)NCCO)C(C)C)C(C)C)C(C)C | broth microdilution | JCM 5803 |  | 0.13 µM |
| CN[C@H](CC(C)C)C(=O)N[C@H]1C(=O)N[C@@H](CC(N)=O)C(=O)N[C@H]2C(=O)NC3C(=O)N[C@H](C(=O)N[C@H](C(=O)NCCC[N+](C)(C)C)c4cc(O)cc(O)c4-c4cc3ccc4O)[C@H](O)c3ccc(c(Cl)c3)Oc3cc2cc(c3OC2OC(CO)C(O)[C@H](O)[C@@H]2O[C@H]2CC(C)(NCc3ccc(-c4ccc(Cl)cc4)cc3)[C@H](O)[C@H](C)O2)Oc2ccc(cc2Cl)[C@H]1O (stereo partly shown) |  | BM4166, VanA vancomycin-resistant |  | 1 µg/mL |
